Published values pooled from the literature.
Lines come from different studies, so protocols differ. Numbers after ± are the reported error.

O=C(NCC1OC2CCC=CCCC2O1)c1ccc(COCCOCCOCC[18F])cc1 (stereo not shown)  tissue uptake (healthy female BALB/c nude mice, bladder; intravenous, 7.4 MBq per mouse, 30 min): 3.2 ± 0.6 %ID/g
CCCC[C@H](NC(=O)CCCCCCCNC(=O)CN1CCN(CC(=O)O)CCN(CC(=O)O)CC1)C(=O)N[C@H]1CC(=O)NCCCC[C@@H](C(N)=O)NC(=O)[C@H](Cc2c[nH]c3ccccc23)NC(=O)[C@H](CCCNC(=N)N)NC(=O)[C@@H](Cc2ccccc2)NC(=O)[C@H](Cc2c[nH]cn2)NC1=O [fluorine-18 labelled]  tissue uptake (C57 mice B16-F10 melanoma, pancreas; intravenous, 0.37 MBq, 0.5 h): 0.43 ± 0.16 %ID/g
Cc1cc(C)n(CCN(CCN)CCCCCCNC(=O)[C@@H](N)Cc2c[nH]c3ccccc23)n1.[99Tc+].[C-]#[O+].[C-]#[O+].[C-]#[O+]  tissue uptake (BALB/c nude mice, A549 xenograft, stomach; intravenous, 15 min): 5.3 ± 1.91 %IA/g
O=C(NCC1OC2CCC=CCCC2O1)c1ccc([18F])nc1 (stereo not shown)  tissue uptake (healthy female BALB/c nude mice, kidneys; intravenous, 7.4 MBq per mouse, 120 min): 1.3 ± 0.1 %ID/g
Cc1cc(C)n(CCN(CCN)CCCCCCNC(=O)[C@@H](N)Cc2c[nH]cn2)n1.[99Tc+].[C-]#[O+].[C-]#[O+].[C-]#[O+]  tissue uptake (BALB/c nude mice MCF7 xenograft, blood; intravenous, 4 h): 0.24 ± 0.13 %ID/g
CCCC[C@H](NC(=O)COCCOCCNC(=O)CN1CCN(CC(=O)O)CCN(CC(=O)O)CC1)C(=O)N[C@H]1CC(=O)NCCCC[C@@H](C(N)=O)NC(=O)[C@H](Cc2c[nH]c3ccccc23)NC(=O)[C@H](CCCNC(=N)N)NC(=O)[C@@H](Cc2ccccc2)NC(=O)[C@H](Cc2c[nH]cn2)NC1=O [fluorine-18 labelled]  tissue uptake (C57 mice, B16/F10 melanoma, heart; intravenous, 1 h, with: NDP-MSH 10 µg): 0.11 ± 0.12 %ID/g
CC(C)C[C@H](NC(=O)[C@@H](CCCCNC(=O)[C@@H](Cc1ccccc1)NC(=O)CCCCCCCNC(=O)CN1CCN(CC(=O)O)CCN(CC(=O)O)CCN(CC(=O)O)CC1)NC(=O)[C@H](Cc1ccc(O)cc1)NC(=O)[C@H](CO)NC(=O)[C@H](Cc1c[nH]c2ccccc12)NC(=O)[C@H](Cc1c[nH]cn1)NC(=O)[C@@H]1CCC(=O)N1)C(=O)N[C@@H](CCCNC(=N)N)C(=O)N1CCC[C@H]1C(=O)NCC(N)=O [indium-111 labelled]  tissue uptake (biodistribution; male athymic nude mice, DU-145 prostate cancer xenograft, brain; intravenous, 0.037 MBq, 4 h post-injection): 0.03 ± 0.03 %ID/g
CCCC[C@H](NC(=O)CNC(=O)CNC(=O)[C@H](CCCCNC(=O)[C@H](CC(=O)O)NC(=O)C(C)c1ccc(CC(C)C)cc1)NC(=O)CN1CCN(CC(=O)O)CCN(CC(=O)O)CCN(CC(=O)O)CC1)C(=O)N[C@H]1CC(=O)NCCCC[C@@H](C(N)=O)NC(=O)[C@H](Cc2c[nH]c3ccccc23)NC(=O)[C@H](CCCNC(=N)N)NC(=O)[C@@H](Cc2ccccc2)NC(=O)[C@H](Cc2c[nH]cn2)NC1=O (stereo partly shown) [lutetium-177 labelled]  tissue uptake (C57 mice, tumour-bearing, pancreas; intravenous, 0.037 MBq, 0.5 h): 1.14 ± 0.18 %ID/g
COc1ccc2c(c1)C(C)(C)C(/C=C/C1=C(Oc3ccc(C(=O)NCCCCOc4cc(CN(Cc5ccccn5)Cc5ccccn5)cc(CN(Cc5ccccn5)Cc5ccccn5)c4)cc3)C(=C/C=C3/N(CCCCS(=O)(=O)[O-])c4ccc(OC)cc4C3(C)C)CCC1)=[N+]2CCCCS(=O)(=O)[O-].O=[N+]([O-])[O-].O=[N+]([O-])[O-].[99Tc+].[C-]#[O+].[C-]#[O+].[C-]#[O+].[Zn+2]  tissue uptake (healthy BALB/c mice, gall bladder; 12 h): 15.6 %ID/g
COc1ccc(Nc2nc(Nc3ccc(OCCOCC[18F])cc3)ncc2Br)cc1  tissue uptake (ICR mice, S180 tumour, kidney; intravenous, 30 min, with: PF-562271 33 mg/kg oral 1 h before): 5.83 ± 0.68 %ID/g

A few entries again:
O=C(NCC1OC2CCC=CCCC2O1)c1ccc([18F])nc1 (stereo not shown)  tissue uptake (healthy female BALB/c nude mice, kidneys; intravenous, 7.4 MBq per mouse, 120 min): 1.3 ± 0.1 %ID/g
